Assay results gathered from unrelated publications.
Every numbered part comes from another study and shows a few of its results, in no order.

Series 1
Target: Max-binding protein MNT, bHLH-zipper, MAX partner unstated (MNT, Homo sapiens, UniProt Q99583, residues 220-300)
Technique: protein-binding microarray
Molecule type: double-stranded DNA, one strand shown
Matrix: in vitro
Tested at: not given
Notes: k-mer, scored over probes, only values ≥0.25
Direction: higher = stronger binding
Target sequence (chain): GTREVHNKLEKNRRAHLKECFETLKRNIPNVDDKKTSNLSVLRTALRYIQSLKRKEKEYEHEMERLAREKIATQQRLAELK
Sequence	E-score
CTCGTGGA	0.42
GGCCCCAC	0.261
CGCACTCC	0.26
CCATGGAC	0.254
CCCGTGCG	0.344
ACATGTTA	0.336
CCCCACTA	0.27

Series 2
Target: Fragile X messenger ribonucleoprotein 1, C-terminal low-complexity region (Fmr1, Mus musculus, UniProt P35922)
Technique: RNA Bind-n-Seq
Molecule type: RNA
Matrix: in vitro
Tested at: 200 nM
Notes: whole 134-nt RNA, ends assumed
Added: 150 mM KCl
Relative to: input library
Direction: higher = stronger binding
All sequences stand within: GGGAGUUCUACAGUCCGACGAUC … UGGAAUUCUCGGGUGUCAAGG
Sequence	log2 enrichment
UUAGGGCCAAUCUUCGUCAAUAUGGUUUAGAGAAGUAUUACCUUGAUGUCCUGGUUUCAGAUGCAUCUAAACCUUCCUGGAGGAAGGGCA	-0.643
UCAAGUCCUGUGCUACACAUCGUAUGUACCGAAUCGGGCCCGGCCCGGCCCGGGGAAAGUAUUAUGUUACGCCGUUCGGAUCUGCACUUC	-0.664
CACAGACAACACGCACCCACACAGACACAAAAGGAAGGGGUUGGGAUGGGGACAGGGUGCACAGCAGGGCGGGGUAGGACCCCAGCCCCU	1.2
UGGGAGGUGGAUUUUGUUUAUUUUUUUAGCUCAUUUCCAGGGGUGGGAAUUUUUUUUUAAUAUGUGUCAUGAAUAAAGUUGUAUUUGAAA	-0.00805
AAGUCCUGUGCUACACAUCGUAUGUACCGAAUCAAACCCCCAAACCCAAAUUUAAAAAAGUAUUAUGUUACGCCGUUCGGAUCUGCACUU	-0.0291
CAAGUCCUGUGCUACACAUCGUAUGUACCGAAUCGGUUUUUGGAAAAAGGAAAGGAAAGUAUUAUGUUACGCCGUUCGGAUCUGCACUUC	-0.713
UUUUUCCAGAGCUCACAACGACCUGGGGCUGAGGACAAUGUCCUCAAUGAGAUCGUGAGUAUCUUGCAGCCCACCCAGGUCCCUGAGCAG	-0.852
UGGGAGGUGGAUUUUGUUUAUUUUUUUAGCUCAUAUCCAGGGGUGGGAAUUUUUUUUUAAUAUGUGUCAUGAAUAAAGUUGUUUUUGAAA	0.301
AGUCCUGUGCUACACAUCGUAUGUACCGAAUCGGGAGGGAAAAAGGGAAAAAAAGGGAAAGUAUUAUGUUACGCCGUUCGGAUCUGCACU	0.0904

Series 3
Target: Interferon regulatory factor 5, full length, phosphomimetic (IRF5, Homo sapiens, UniProt Q13568-2, residues 1-514, K96S/S451D/S453D/S456D/S462D)
Technique: protein-binding microarray
Molecule type: double-stranded DNA, one strand shown
Matrix: in vitro
Tested at: 250 nM
Notes: 60-bp whole probe
Added: salmon DNA 0.4 mg/ml
Relative to: random background probes
Direction: higher = stronger binding
All sequences stand within: GCCTAGCAC … GTCTTGATTCGCTTGACGCTGCTG
Sequence	log fluorescence
TTAGGACTGGCCACTGGGTTAGTGCTA	-0.753 z-score
TTAGGTATCGGTTTCGCTTAGTGCTAG	10.1 z-score
GACGGAATGGGGTATCGGGACGTGCTA	0.282 z-score
GACGAGCTCAGTTTCGAGACGTGCTAG	4.92 z-score
GACGAACTGGGGAATGGAGACGTGCTA	-0.517 z-score
TGCTATACCACTCTTGCTTTGTGCTAG	0.151 z-score

Series 4
Molecule: PhoQ, residues 284 288 289 292 302 303 AGHLVA
Technique: Sort-seq
Refers to: YFP reporter
Matrix: E. coli
Notes: PhoQ-PhoP variant library
Added: 10 µM Mg2+
Relative to: high Mg2+ state
Direction: higher = stronger signaling
target	fold induction
PhoP, residues 12 14 15 18 19 HHYTI (Escherichia coli, UniProt P23836)	1.75
PhoP, residues 12 14 15 18 19 AYFRS (Escherichia coli, UniProt P23836)	6.52
PhoP, residues 12 14 15 18 19 SFCSL (Escherichia coli, UniProt P23836)	14.7

Some of these lines once more (series 2):
Sequence	log2 enrichment
UGGGAGGUGGAUUUUGUUUAUUUUUUUAGCUCAUUUCCAGGGGUGGGAAUUUUUUUUUAAUAUGUGUCAUGAAUAAAGUUGUAUUUGAAA	-0.00805
AAGUCCUGUGCUACACAUCGUAUGUACCGAAUCAAACCCCCAAACCCAAAUUUAAAAAAGUAUUAUGUUACGCCGUUCGGAUCUGCACUU	-0.0291
